Assay results from different studies.
Each line is one published result; not all experiments were run side by side. “And” joins repeats or separate records; there may be more than shown. ± marks the error that the study gave.
U2AF2: U2AF2 148-342 (Homo sapiens, UniProt P26368)
Sequence of UniProt P26368 (whole entry, looked up): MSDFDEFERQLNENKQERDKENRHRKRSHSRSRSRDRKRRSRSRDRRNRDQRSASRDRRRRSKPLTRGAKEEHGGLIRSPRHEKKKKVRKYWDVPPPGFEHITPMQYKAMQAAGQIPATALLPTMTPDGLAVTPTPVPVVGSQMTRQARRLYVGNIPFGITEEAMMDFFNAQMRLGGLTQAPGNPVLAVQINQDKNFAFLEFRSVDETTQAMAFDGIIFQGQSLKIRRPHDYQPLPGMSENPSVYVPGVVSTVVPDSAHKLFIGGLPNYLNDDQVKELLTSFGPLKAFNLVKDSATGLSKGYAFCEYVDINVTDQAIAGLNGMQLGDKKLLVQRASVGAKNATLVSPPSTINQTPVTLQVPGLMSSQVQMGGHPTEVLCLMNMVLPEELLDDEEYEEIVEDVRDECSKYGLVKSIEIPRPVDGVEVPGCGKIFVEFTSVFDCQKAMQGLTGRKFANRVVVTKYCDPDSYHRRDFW
SPT15 full length assumed: SPT15 full length assumed (Saccharomyces cerevisiae, UniProt P13393)
Sequence of UniProt P13393 (whole entry, looked up): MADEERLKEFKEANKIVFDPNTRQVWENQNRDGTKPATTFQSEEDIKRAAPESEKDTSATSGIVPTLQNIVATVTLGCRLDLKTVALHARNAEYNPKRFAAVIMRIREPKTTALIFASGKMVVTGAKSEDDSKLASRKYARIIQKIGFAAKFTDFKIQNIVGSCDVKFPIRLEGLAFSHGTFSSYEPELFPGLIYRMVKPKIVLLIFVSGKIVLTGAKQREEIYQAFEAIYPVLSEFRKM
B1: PP4 catalytic subunit (human); sequence looked up; chain AEISDLDRQIEQLRRCELIKESEVKALCAKAREILVEESNVQRVDSPVTVCGDIHGQFYDLKELFRVGGDVPETNYLFMGDFVDRGFYSVETFLLLLALKVRYPDRITLIRGNHESRQITQVYGFYDECLRKYGSVTVWRYCTEIFDYLSLSAIIDGKIFCVHGGLSPSIQTLDQIRTIDRKQEVPHDGPMCDLLWSDPEDTTGWGVSPRGAGYLFGSDVVAQFNAANDIDMICRAHQLVMEGYKWHFNETVLTVWSAPNYCYRCGNVAAILELDEHLQKDFIIFEAAPQETRGIPSKKPVADYFL
B2: human ADP/ATP translocase 2; sequence looked up; chain MTDAAVSFAKDFLAGGVAAAISKTAVAPIERVKLLLQVQHASKQITADKQYKGIIDCVVRIPKEQGVLSFWRGNLANVIRYFPTQALNFAFKDKYKQIFLGGVDKRTQFWLYFAGNLASGGAAGATSLCFVYPLDFARTRLAADVGKAGAEREFRGLGDCLVKIYKSDGIKGLYQGFNVSVQGIIIYRAAYFGIYDTAKGMLPDPKNTHIVISWMIAQTVTAVAGLTSYPFDTVRRRMMMQSGRKGTDIMYTGTLDCWRKIARDEGGKAFFKGAWSNVLRGMGGAFVLVLYDEIKKYT
B3: human RECQ1; sequence looked up; chain MASVSALTEELDSITSELHAVEIQIQELTERQQELIQKKKVLTKKIKQCLEDSDAGASNEYDSSPAAWNKEDFPWSGKVKDILQNVFKLEKFRPLQLETINVTMAGKEVFLVMPTGGGKSLCYQLPALCSDGFTLVICPLISLMEDQLMVLKQLGISATMLNASSSKEHVKWVHAEMVNKNSELKLIYVTPEKIAKSKMFMSRLEKAYEARRFTRIAVDEVHCCSQWGHDFRPDYKALGILKRQFPNASLIGLTATATNHVLTDAQKILCIEKCFTFTASFNRPNLYYEVRQKPSNTEDFIEDIVKLINGRYKGQSGIIYCFSQKDSEQVTVSLQNLGIHAGAYHANLEPEDKTTVHRKWSANEIQVVVATVAFGMGIDKPDVRFVIHHSMSKSMENYYQESGRAGRDDMKADCILYYGFGDIFRISSMVVMENVGQQKLYEMVSYCQNISKCRRVLMAQHFDEVWNSEACNKMCDNCCKDSAFERKNITEYCRDLIKILKQAEELNEKLTPLKLIDSWMGKGAAKLRVAGVVAPTLPREDLEKIIAHFLIQQYLKEDYSFTAYATISYLKIGPKANLLNNEAHAITMQVTKSTQNSFRAESSQTCHSEQGDKKMEEKNSGNFQKKAANMLQQSGSKNTGAKKRKIDDA
B4: phosphofructokinase liver-type, human; sequence looked up; chain AAVDLEKLRASGAGKAIGVLTSGGDAQGMNAAVRAVTRMGIYVGAKVFLIYEGYEGLVEGGENIKQANWLSVSNIIQLGGTIIGSARCKAFTTREGRRAAAYNLVQHGITNLCVIGGDGSLTGANIFRSEWGSLLEELVAEGKISETTARTYSHLNIAGLVGSIDNDFCGTDMTIGTDSALHRIMEVIDAITTTAQSHQRTFVLEVMGRHCGYLALVSALASGADWLFIPEAPPEDGWENFMCERLGETRSRGSRLNIIIIAEGAIDRNGKPISSSYVKDLVVQRLGFDTRVTVLGHVQRGGTPSAFDRILSSKMGMEAVMALLEATPDTPACVVTLSGNQSVRLPLMECVQMTKEVQKAMDDKRFDEATQLRGGSFENNWNIYKLLAHQKPPKEKSNFSLAILNVGAPAAGMNAAVRSAVRTGISHGHTVYVVHDGFEGLAKGQVQEVGWHDVAGWLGRGGSMLGTKRTLPKGQLESIVENIRIYGIHALLVVGGFEAYEGVLQLVEARGRYEELCIVMCVIPATISNNVPGTDFSLGSDTAVNAAMESCDRIKQSASGTKRRVFIVETMGGYCGYLATVTGIAVGADAAYVFEDPFNIHDLKVNVEHMTEKMKTDIQRGLVLRNEKCHDYYTTEFLYNLYSSEGKGVFDCRTNVLGHLQQGGAPTPFDRNYGTKLGVKAMLWLSEKLREVYRKGRVFANAPDSACVIGLKKKAVAFSPVTELKKDTDFEHRMPREQWWLSLRLMLKMLAQYRISMAAYVSGELEHVTRRTLSMDKGF
B5: human hypoxia up-regulated protein 1; sequence looked up; chain LAVMSVDLGSESMKVAIVKPGVPMEIVLNKESRRKTPVIVTLKENERFFGDSAASMAIKNPKATLRYFQHLLGKQADNPHVALYQARFPEHELTFDPQRQTVHFQISSQLQFSPEEVLGMVLNYSRSLAEDFAEQPIKDAVITVPVFFNQAERRAVLQAARMAGLKVLQLINDNTATALSYGVFRRKDINTTAQNIMFYDMGSGSTVCTIVTYQMVKTKEAGMQPQLQIRGVGFDRTLGGLEMELRLRERLAGLFNEQRKGQRAKDVRENPRAMAKLLREANRLKTVLSANADHMAQIEGLMDDVDFKAKVTRVEFEELCADLFERVPGPVQQALQSAEMSLDEIEQVILVGGATRVPRVQEVLLKAVGKEELGKNINADEAAAMGAVYQAAALSKAFKVKPFVVRDAVVYPILVEFTREVEEEPGIHSLKHNKRVLFSRMGPYPQRKVITFNRYSHDFNFHINYGDLGFLGPEDLRVFGSQNLTTVKLKGVGDSFKKYPDYESKGIKAHFNLDESGVLSLDRVESVFETLVEDSAEEESTLTKLGNTISSLFGGGTTPDAKENGTDTVQEEEESPAEGSKDEPGEQVELKEEAEAPVEDGSQPPPPEPKGDATPEGEKATEKENGDKSEAQKPSEKAEAGPEGVAPAPEGEKKQKPARKRRMVEEIGVELVVLDLPDLPEDKLAQSVQKLQDLTLRDLEKQEREKAANSLEAFIFETQDKLYQPEYQEVSTEEQREEISGKLSAASTWLEDEGVGATTVMLKEKLAELRKLCQGLFFRVEERKKWPERLSALDNLLNHSSMFLKGARLIPEMDQIFTEVEMTTLEKVINETWAWKNATLAEQAKLPATEKPVLLSKDIEAKMMALDREVQYLLNKAKFTKPRPRPKDKNGTRAEPPLNASASDQGEKVIPPAGQTEDAEPISEPEKVETGSEPGDTEPLELGGPGAEPEQKEQSTGQKRPLKNDEL

Substance | tested on | assay | test system | conditions | scale | measurement | result
ESDPISSPY | Jurkat expressing engineered TCR | NFAT-eGFP reporter, fluorescence microscopy | peptide | concentration not given, HLA-A*01:01 on EL4 cells |  | GFP-positive cells | 2.89%
AUAUUCUAU (ssRNA) | U2AF2 | sequencing of bound RNA | RNA | motif only |  | Kd | 1920 nM
poly(rC)-binding protein 1, human | CYB5R4 knockout human cells | PP6 interaction, 3xFLAG-PP6C IP-MS |  | concentration not given | baseline: CYB5R4 KO over parental | log2 fold change | -1.96
human ME2 K74H |  | enzyme activity, NADH absorbance |  | without fumarate, together with: L-malate varied |  | Hill coefficient | 1.71 ± 0.12
caspofungin |  |  | adult ICU patients, mITT, serum | dose not given, day 4 |  | alanine aminotransferase | 25.3 U/L
lawsone | MOLT-3 | XTT |  |  | baseline: MRC5 IC50 over MOLT-3 IC50 | selectivity index | 16.6
Phosphate | human neutrophils | sulfate/chloride exchange, substrate, sulfate influx |  | external binding site |  | Km | > 20 mM
TGGATCAATCGAGAATTCCTGGTATGGTATAAAGATCAAGTCAATCGGTCC (dsDNA; 5'-amino-C6 primer) | SPT15 full length assumed | array | double-stranded DNA, one strand shown | TBP alone |  | Kd | 212 ± 159 nM
B1 (PP4 catalytic subunit) | CYB5R4 knockout human cells | PP4 interaction, 3xFLAG-PP4C IP-MS |  | concentration not given | baseline: CYB5R4 KO over parental | log2 fold change | 0
ELEPIYLGF | Jurkat expressing engineered TCR | NFAT-eGFP reporter, fluorescence microscopy | peptide | concentration not given, HLA-A*01:01 on EL4 cells |  | GFP-positive cells | 0.418%
MTVCNASQRQAHAQATAVSL | HCC366 | phage binding | peptide |  | baseline: targeting over control phage | selectivity ratio | 1.2 ± 0.49
YLDPIPLAY | Jurkat NFAT-eGFP expressing engineered TCR | NFAT reporter gene | peptide | concentration not given, HLA-A*01:01 presentation |  | GFP-positive cells | 0.728%
B2 (human ADP/ATP translocase 2) | CYB5R4 knockout human cells | PP4 interaction, 3xFLAG-PP4C IP-MS |  | concentration not given | baseline: CYB5R4 KO over parental | log2 fold change | -0.69
epoetin alfa | UT7/EPO | microarray, item: PHLDA1 (probe 217996_at) |  | 5 U/mL, 90 min, together with: SCF 10 nM | baseline: vehicle | mRNA level | 7.7 fold
B3 (human RECQ1) | CYB5R4 knockout human cells | PP4 interaction, 3xFLAG-PP4C IP-MS |  | concentration not given | baseline: CYB5R4 KO over parental | log2 fold change | -2.22
TRAIL | EA.hy926 | CellTiter-Glo |  | concentration not given |  | viability | 27.1% and 25.9%
LIDPIGMIF | Jurkat expressing engineered TCR | NFAT-eGFP reporter, fluorescence microscopy | peptide | concentration not given, HLA-A*01:01 on EL4 cells |  | GFP-positive cells | 0.438%
TCCTGAAGAGGCGCCTATAAAAGGTCCTATCGTCGTCAAGTCAATCGGTCC (dsDNA; 5'-amino-C6 primer) | SPT15 full length assumed | array | double-stranded DNA, one strand shown | TBP alone |  | Kd | 22.5 ± 17.4 nM
garcinone C | 22Rv1 | cell viability |  | 48 h |  | IC50 | 22.6 µM
B4 | CYB5R4 knockout human cells | PP6 interaction, 3xFLAG-PP6C IP-MS |  | concentration not given | baseline: CYB5R4 KO over parental | log2 fold change | 0.53
ELEPIPLGF | Jurkat expressing engineered TCR | NFAT-eGFP reporter, fluorescence microscopy | peptide | concentration not given, HLA-A*01:01 on EL4 cells |  | GFP-positive cells | 0.499%
Peginesatide | UT7/EPO | LC-MS/MS phosphoproteomics (trypsin), item: JAK2 phospho-Tyr1007,1008 |  | 10 nM, 15 min | baseline: vehicle | phosphorylation | 3.4 fold
GUAUUAUUC (ssRNA) | U2AF2 | sequencing of bound RNA | RNA | motif only |  | Kd | 4430 nM
LLDILNLEY | Jurkat expressing engineered TCR | NFAT-eGFP reporter, fluorescence microscopy | peptide | concentration not given, HLA-A*01:01 on EL4 cells |  | GFP-positive cells | 0.464%
B5 | CYB5R4 knockout human cells | PP4 interaction, 3xFLAG-PP4C IP-MS |  | concentration not given | baseline: CYB5R4 KO over parental | log2 fold change | -1.63

Some of these lines once more:
Substance | tested on | assay | test system | conditions | scale | measurement | result
B1 (PP4 catalytic subunit) | CYB5R4 knockout human cells | PP4 interaction, 3xFLAG-PP4C IP-MS |  | concentration not given | baseline: CYB5R4 KO over parental | log2 fold change | 0
ELEPIYLGF | Jurkat expressing engineered TCR | NFAT-eGFP reporter, fluorescence microscopy | peptide | concentration not given, HLA-A*01:01 on EL4 cells |  | GFP-positive cells | 0.418%
MTVCNASQRQAHAQATAVSL | HCC366 | phage binding | peptide |  | baseline: targeting over control phage | selectivity ratio | 1.2 ± 0.49
YLDPIPLAY | Jurkat NFAT-eGFP expressing engineered TCR | NFAT reporter gene | peptide | concentration not given, HLA-A*01:01 presentation |  | GFP-positive cells | 0.728%
